# Results of several laboratories.
# Each numbered part is a random draw from the data of one study; scales do not carry over between parts.

# Study 1
# Target: Sal-like protein 4, full length isoform B (SALL4, Homo sapiens, UniProt Q9UJQ4-2, residues 1-616)
# Method: universal PBM
# Form: double-stranded DNA, one strand shown
# Matrix: in vitro
# Tested at: not given
# Setting: 8-mer, flanks averaged, mean of replicates
# Reading: higher = stronger binding
Oligonucleotide,E-score
AAGAACCA,-0.0158
CAGTGAGG,-0.207
CTTTCCGC,-0.241
CACACTTA,0.148
CGGAACCG,-0.376

# Study 2
# Target: Prothrombin, mature alpha-thrombin (F2, Homo sapiens, UniProt P00734)
# Method: aptamer microarray, sandwich
# Form: DNA with 2'F-ANA
# Matrix: in vitro
# Tested at: 200 nM
# Setting: whole 15-mer aptamer, many near background
# Added: Cy3 exosite-II aptamer, 400 nM
# Reading: higher = stronger binding
Oligonucleotide,mean fluorescence intensity [a.u.]
GGTTGGTGTGGTTGG (2'F-ANA at 4 5 7 10 14 15),67.3
GGTTGGTGTGGTTGG (2'F-ANA at 1 3 5 7 8 11 13),56.9
GGTTGGTGTGGTTGG (2'F-ANA at 3 5 6 7 8 9 10 12 14),50.5

# Study 3
# Target: Histone acetyltransferase KAT6A, winged helix 1, GST fusion (KAT6A, Homo sapiens, UniProt Q92794, residues 1-85)
# Method: protein binding microarray
# Form: double-stranded DNA, one strand shown
# Matrix: in vitro
# Tested at: not given
# Setting: 8-mer, flanks averaged, mean of 2 arrays, mostly near background
# Reference: not given
# Reading: higher = stronger binding
# Residues (chain): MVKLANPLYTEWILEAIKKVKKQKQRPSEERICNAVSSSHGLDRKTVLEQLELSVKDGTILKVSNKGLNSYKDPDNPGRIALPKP
Oligonucleotide,E-score
TCACTACA,-0.192
CACCTCCA,-0.191
ATTACTTC,-0.0776
GACCTTTA,-0.0598
AAAGTACA,-0.165

# Single results of other studies
Molecule,target,assay,system,conditions,scale,endpoint,result
"PhoQ, residues 284 288 289 292 302 303 TLSLKA","PhoP, residues 12 14 15 18 19 NQAHL (Escherichia coli, UniProt P23836)","Sort-seq, item: YFP reporter",E. coli,"PhoQ-PhoP variant library, added: 10 µM Mg2+","reference: high Mg2+ state, higher = stronger signaling",fold induction,21.7

# Repeated from above (study 3):
Oligonucleotide,E-score
ATTACTTC,-0.0776
